Measured values pooled from the literature.
Every numbered part comes from another study and shows a few of its results, in no order. “And” joins repeats or separate records; there may be more than shown.
Chain of UniProt P49841 (whole entry, looked up): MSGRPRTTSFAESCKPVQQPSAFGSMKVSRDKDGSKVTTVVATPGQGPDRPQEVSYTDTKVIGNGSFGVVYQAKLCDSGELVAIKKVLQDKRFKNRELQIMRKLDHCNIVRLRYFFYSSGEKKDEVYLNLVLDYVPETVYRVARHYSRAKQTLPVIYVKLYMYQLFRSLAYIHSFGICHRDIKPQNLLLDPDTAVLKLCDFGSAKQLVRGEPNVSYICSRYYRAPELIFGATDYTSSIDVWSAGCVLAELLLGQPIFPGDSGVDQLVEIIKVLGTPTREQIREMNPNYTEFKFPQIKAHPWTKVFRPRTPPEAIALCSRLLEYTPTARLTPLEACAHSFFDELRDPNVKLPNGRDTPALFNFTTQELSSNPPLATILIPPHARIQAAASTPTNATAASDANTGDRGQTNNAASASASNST
Chain of UniProt Q15375 (whole entry, looked up): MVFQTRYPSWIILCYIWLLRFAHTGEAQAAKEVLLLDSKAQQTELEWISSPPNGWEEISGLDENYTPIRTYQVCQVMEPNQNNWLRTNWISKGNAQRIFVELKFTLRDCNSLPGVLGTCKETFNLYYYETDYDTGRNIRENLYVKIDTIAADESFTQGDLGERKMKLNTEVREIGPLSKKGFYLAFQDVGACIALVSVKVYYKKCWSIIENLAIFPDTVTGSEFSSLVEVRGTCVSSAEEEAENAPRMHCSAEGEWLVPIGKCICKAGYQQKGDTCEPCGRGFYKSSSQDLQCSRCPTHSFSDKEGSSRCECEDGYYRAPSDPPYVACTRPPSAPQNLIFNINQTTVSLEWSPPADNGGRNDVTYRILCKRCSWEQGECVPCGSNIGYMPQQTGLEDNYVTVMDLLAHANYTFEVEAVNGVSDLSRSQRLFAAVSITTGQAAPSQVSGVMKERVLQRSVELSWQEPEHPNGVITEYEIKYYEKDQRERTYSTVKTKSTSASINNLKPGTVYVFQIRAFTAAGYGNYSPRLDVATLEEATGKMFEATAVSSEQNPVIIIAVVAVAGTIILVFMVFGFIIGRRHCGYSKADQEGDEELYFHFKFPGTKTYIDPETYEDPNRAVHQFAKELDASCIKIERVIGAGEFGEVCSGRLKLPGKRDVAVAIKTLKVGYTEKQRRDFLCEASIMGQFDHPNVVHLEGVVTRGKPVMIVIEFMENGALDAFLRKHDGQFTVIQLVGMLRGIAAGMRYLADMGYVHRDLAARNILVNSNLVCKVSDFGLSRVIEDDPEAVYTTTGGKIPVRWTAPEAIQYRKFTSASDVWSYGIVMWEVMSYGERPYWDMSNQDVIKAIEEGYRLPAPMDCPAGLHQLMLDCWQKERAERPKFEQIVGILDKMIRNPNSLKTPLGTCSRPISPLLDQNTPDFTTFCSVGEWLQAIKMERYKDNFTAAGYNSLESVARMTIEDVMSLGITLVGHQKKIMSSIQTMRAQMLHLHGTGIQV
Chain of UniProt Q9Y6R4 (whole entry, looked up): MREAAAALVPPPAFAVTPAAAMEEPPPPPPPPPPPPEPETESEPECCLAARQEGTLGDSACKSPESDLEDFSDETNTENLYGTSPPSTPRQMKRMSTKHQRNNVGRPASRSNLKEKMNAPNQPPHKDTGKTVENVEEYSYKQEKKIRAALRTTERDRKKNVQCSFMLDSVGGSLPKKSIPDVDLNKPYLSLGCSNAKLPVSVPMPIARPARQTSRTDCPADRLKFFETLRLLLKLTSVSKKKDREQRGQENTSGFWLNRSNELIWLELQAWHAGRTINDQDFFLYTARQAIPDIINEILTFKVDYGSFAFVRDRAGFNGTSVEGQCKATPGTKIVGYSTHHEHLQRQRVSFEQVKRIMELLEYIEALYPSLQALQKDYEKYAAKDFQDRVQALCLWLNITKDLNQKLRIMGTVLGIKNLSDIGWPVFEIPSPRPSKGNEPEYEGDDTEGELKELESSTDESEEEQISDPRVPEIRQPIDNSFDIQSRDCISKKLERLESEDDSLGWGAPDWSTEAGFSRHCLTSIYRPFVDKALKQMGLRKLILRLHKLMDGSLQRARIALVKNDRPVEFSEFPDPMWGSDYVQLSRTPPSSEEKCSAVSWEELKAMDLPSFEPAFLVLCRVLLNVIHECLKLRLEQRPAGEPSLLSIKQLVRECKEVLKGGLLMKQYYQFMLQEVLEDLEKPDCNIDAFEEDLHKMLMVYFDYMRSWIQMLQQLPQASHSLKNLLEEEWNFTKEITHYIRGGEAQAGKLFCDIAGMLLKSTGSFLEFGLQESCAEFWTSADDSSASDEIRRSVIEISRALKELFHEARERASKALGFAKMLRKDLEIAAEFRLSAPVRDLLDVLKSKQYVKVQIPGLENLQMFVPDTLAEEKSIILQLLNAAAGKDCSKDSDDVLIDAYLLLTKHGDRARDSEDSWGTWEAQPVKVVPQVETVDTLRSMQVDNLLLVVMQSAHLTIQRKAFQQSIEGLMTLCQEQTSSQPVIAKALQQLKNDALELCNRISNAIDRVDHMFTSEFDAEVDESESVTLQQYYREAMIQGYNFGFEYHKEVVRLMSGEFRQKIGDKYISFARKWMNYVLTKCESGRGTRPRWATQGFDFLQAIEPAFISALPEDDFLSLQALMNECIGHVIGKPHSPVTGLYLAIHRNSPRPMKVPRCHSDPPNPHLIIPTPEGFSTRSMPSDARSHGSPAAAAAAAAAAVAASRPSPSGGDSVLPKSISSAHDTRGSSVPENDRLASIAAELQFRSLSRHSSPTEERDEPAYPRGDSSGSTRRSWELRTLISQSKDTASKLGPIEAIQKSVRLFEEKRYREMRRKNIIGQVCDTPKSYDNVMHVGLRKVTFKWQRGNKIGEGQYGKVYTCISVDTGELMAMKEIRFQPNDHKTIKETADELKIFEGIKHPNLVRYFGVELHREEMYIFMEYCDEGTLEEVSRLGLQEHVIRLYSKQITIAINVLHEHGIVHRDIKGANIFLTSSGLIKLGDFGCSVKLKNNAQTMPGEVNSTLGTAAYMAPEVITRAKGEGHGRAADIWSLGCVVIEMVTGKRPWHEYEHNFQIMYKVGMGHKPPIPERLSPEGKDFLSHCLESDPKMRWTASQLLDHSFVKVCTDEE
Chain of UniProt Q15349 (whole entry, looked up): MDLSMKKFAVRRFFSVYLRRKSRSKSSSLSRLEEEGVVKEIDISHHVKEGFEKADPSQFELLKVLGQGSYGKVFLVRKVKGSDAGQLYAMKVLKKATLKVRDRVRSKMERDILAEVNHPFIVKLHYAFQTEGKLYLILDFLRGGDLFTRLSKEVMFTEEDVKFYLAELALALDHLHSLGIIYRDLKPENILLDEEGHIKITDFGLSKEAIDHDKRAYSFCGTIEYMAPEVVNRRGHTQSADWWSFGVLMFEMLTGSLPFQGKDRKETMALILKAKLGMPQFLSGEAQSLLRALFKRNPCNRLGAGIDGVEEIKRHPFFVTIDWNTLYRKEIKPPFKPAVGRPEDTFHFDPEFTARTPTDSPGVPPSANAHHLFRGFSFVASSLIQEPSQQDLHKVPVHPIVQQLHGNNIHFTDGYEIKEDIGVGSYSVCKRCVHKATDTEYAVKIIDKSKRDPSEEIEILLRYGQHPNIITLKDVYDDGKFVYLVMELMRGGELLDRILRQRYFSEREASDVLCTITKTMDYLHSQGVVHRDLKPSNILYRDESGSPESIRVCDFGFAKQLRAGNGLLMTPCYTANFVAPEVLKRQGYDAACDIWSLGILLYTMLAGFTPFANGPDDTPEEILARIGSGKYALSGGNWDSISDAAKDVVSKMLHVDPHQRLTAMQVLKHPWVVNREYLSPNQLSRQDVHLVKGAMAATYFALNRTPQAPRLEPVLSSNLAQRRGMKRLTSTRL
Chain of UniProt Q96SB4 (whole entry, looked up): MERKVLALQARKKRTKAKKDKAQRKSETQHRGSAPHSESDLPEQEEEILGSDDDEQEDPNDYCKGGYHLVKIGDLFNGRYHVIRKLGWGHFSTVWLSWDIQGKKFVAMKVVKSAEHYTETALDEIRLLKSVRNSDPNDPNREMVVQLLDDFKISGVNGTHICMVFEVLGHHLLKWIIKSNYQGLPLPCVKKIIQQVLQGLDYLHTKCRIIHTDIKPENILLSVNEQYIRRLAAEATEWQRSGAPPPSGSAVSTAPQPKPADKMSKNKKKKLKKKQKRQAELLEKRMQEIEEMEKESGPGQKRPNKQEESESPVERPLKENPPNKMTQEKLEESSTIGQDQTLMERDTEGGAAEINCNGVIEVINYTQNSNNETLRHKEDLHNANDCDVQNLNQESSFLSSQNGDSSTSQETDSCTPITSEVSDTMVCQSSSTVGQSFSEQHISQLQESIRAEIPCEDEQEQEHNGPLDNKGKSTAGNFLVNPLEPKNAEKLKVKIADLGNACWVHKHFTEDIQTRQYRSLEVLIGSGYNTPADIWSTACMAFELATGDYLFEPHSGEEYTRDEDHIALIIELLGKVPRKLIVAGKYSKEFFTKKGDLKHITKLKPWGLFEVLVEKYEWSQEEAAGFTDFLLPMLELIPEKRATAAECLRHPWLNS

Set 1 — observed: cell-free assay; method: competition with immobilised ligand; concentration: 1 µM
Structure (SMILES): NS(=O)(=O)c1cc(NC(=O)Cc2ccccc2)ccc1Oc1cccc(Cl)c1
target	remaining binding [%]
MKNK2 (Homo sapiens, UniProt Q9HBH9)	86
Ribosomal protein S6 kinase alpha-6, C-terminal kinase domain (RPS6KA6, Homo sapiens, UniProt Q9UK32)	59
GSK3B (Homo sapiens, UniProt P49841)	80
MAP3K4 (Homo sapiens, UniProt Q9Y6R4)	100
BMPR1B (Homo sapiens, UniProt O00238)	94
Aurora kinase C (AURKC, Homo sapiens, UniProt Q9UQB9)	100
EPHA8 (Homo sapiens, UniProt P29322)	100
CDK17 (Homo sapiens, UniProt Q00537)	88
Ribosomal protein S6 kinase alpha-2, N-terminal kinase domain (RPS6KA2, Homo sapiens, UniProt Q15349)	100
CSNK1D (Homo sapiens, UniProt P48730)	93
Non-receptor tyrosine-protein kinase TYK2, JH1 (TYK2, Homo sapiens, UniProt P29597)	90
FLT3 (Homo sapiens, UniProt P36888, D835H)	98
CDK13 (Homo sapiens, UniProt Q14004)	92
TAOK3 (Homo sapiens, UniProt Q9H2K8)	75
Tyrosine-protein kinase ABL1, non-phosphorylated (ABL1, Homo sapiens, UniProt P00519, F317L)	57
WNK3 (Homo sapiens, UniProt Q9BYP7)	78
MELK (Homo sapiens, UniProt Q14680)	59
PIK3CA (Homo sapiens, UniProt P42336, E542K)	87
HCK (Homo sapiens, UniProt P08631)	54
ERN1 (Homo sapiens, UniProt O75460)	73
EPHA7 (Homo sapiens, UniProt Q15375)	92
WEE1 (Homo sapiens, UniProt P30291)	75
MAP2K4 (Homo sapiens, UniProt P45985)	82
EGFR (Homo sapiens, UniProt P00533, T790M)	100
SRPK1 (Homo sapiens, UniProt Q96SB4)	62

Set 2 — cell line: mouse MPNST tumor cells; method: high-content nuclear imaging; measured: cell number; concentration: 10 µM; time: 12 h; notes: mean of 2 replicates; relative to: plate mean; reading: higher = more cells
Compound	nuclei count
COc1ccc(C(=O)NCc2ccc(OCCN(C)C)cc2)cc1OC	0.721 z-score
CC(C)(C)NC[C@H](O)COc1cccc2c1CCCC2=O	2.81 z-score
C[C@H](Oc1cc(-c2cnn(C3CCNCC3)c2)cnc1N)c1c(Cl)ccc(F)c1Cl	-6.37 z-score
CCCCCCCCCCC[C@@H](C[C@@H]1OC(=O)[C@H]1CCCCCC)OC(=O)[C@H](CC(C)C)NC=O	1.81 z-score
CC1CC(OC(=O)c2ccccc2O)CC(C)(C)C1 (centres unmarked)	1.12 z-score
CC(N/C(=N\C#N)Nc1ccncc1)C(C)(C)C (centres unmarked)	5.17 z-score and 4.05 z-score

Set 3 — host: human; medium: microsomes or S9; concentration: 2 µM; time: 0.5 h
Structure (SMILES)	remaining compound
CCCN(CCC)c1nc(N)nc(-c2noc(C)n2)n1	35.7%
CCc1nn2c(=O)c(CC(=O)OC)c(C)[nH]c2c1-c1ccccc1	95.9%
Cc1ccc(-c2noc(CCC(=O)NC(C)c3ccc(Cl)cc3)n2)c(=O)n1C(C)C (centres unmarked)	1.37%
CCOC(=O)CC1C(=O)NCCN1S(=O)(=O)c1ccc(C)cc1 (centres unmarked)	59.7%
O=C(c1ccc2[nH]cnc2c1)N1CCc2nc3cc(-c4ccccc4Cl)[nH]n3c(=O)c2C1	83.5%
CC(C)Oc1cc(N2C=NN(C)CC2)ccc1[N+](=O)[O-]	21%
Cc1cc2cc(NC(=O)c3cc4nccc(-c5cnn(C)c5C)n4n3)cc(Cl)c2o1	18.8%

Set 4 — host: mouse; medium: EL4 tumour; dose: dose not given
SMILES: CC(=O)N[C@@H](Cc1c[nH]c2ccccc12)C(=O)N[C@@H](CCC(=O)C=[N+]=[N-])C(=O)OC(C)C
assay	normalized intensity
measured: glutamate	-0.0662 and 0.0482 and 0.0678 and -0.0135 and -0.155 and 0.0394
measured: kynurenine	0.0811 and 0.13 and 0.0656 and -0.179 and -0.219 and 0.143
measured: succinate	-0.0665 and -0.23 and -0.0795 and -0.228 and -0.317 and -0.0274
measured: adenine	-0.339 and -0.464 and -0.389 and -0.373 and -0.336 and -0.264
measured: adenosine	-0.0221 and -0.139 and -0.18 and -0.0803 and -0.146 and -0.0263

Set 5 — action: agonist
Target: Beta-1 adrenergic receptor (ADRB1, Homo sapiens, UniProt P08588)
Chain of UniProt P08588 (whole entry, looked up): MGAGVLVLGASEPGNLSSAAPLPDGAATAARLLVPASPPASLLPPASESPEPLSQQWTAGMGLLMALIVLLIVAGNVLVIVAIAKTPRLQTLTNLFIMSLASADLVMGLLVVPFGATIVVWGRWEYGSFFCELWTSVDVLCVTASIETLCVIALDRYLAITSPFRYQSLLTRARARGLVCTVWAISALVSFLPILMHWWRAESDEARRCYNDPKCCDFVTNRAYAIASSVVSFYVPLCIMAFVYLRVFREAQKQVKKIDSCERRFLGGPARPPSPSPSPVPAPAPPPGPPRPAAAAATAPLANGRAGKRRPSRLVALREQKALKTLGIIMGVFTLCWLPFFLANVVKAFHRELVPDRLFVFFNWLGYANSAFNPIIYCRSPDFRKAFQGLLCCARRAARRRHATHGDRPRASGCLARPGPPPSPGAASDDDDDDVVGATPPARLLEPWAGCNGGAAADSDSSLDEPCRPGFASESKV
SMILES	EC50
N#Cc1cc2cc(CN3CCC(Nc4ncnc5sc(CC(F)(F)F)cc45)CC3)c(O)cc2n1Cc1cn[nH]c1	≥ 100 µM
COc1ccccc1N1CCN(C(C)C(=O)Nc2ccc(C(N)=O)cc2)CC1 (centres unmarked)	≥ 100 µM
FC(F)(F)c1cccc(C2=NOC3(CCN(Cc4ccsc4)C3)C2)c1 (centres unmarked)	≥ 100 µM
Cc1cc(=O)oc2cc(NC(=O)CCCCCCC(=O)NO)ccc12	≥ 100 µM
O=c1ccn(Cc2cnn(-c3ccccc3)n2)c2ccccc12	≥ 100 µM
CN(C)c1cccc(NC(=O)C2=NO[C@@H]3CN(c4cccnc4)C[C@H]23)c1	≥ 100 µM

Other studies, line by line
SMILES	assay	system	setting	measurement	value
COc1ccc(-c2c(Nc3ccccn3)[nH]c3c(C4=CCCCC4)c(-c4ccccc4)nn3c2=O)cc1	LC-MS/MS	human, plasma	oral, 50 mg once daily	Cmax, dose-normalised	32.6 ng/mL/mg and 34.6 ng/mL/mg and 35.6 ng/mL/mg

Some of these lines once more (set 2):
Compound	nuclei count
CC(C)(C)NC[C@H](O)COc1cccc2c1CCCC2=O	2.81 z-score
CCCCCCCCCCC[C@@H](C[C@@H]1OC(=O)[C@H]1CCCCCC)OC(=O)[C@H](CC(C)C)NC=O	1.81 z-score
CC(N/C(=N\C#N)Nc1ccncc1)C(C)(C)C (centres unmarked)	5.17 z-score and 4.05 z-score
C[C@H](Oc1cc(-c2cnn(C3CCNCC3)c2)cnc1N)c1c(Cl)ccc(F)c1Cl	-6.37 z-score
CC1CC(OC(=O)c2ccccc2O)CC(C)(C)C1 (centres unmarked)	1.12 z-score
